# Measured values from different studies.
# Parts stem from different laboratories: compare values within a part only. Positions count from the first letter of the parent shown.

# Sample 1
# Target: Phosphate system positive regulatory protein PHO4, full length, GST-tagged (PHO4, Saccharomyces cerevisiae, UniProt P07270, residues 1-312)
# Method: competition protein-binding microarray
# Molecule type: double-stranded DNA, one strand shown
# Medium: in vitro
# Concentration: 2 µM
# Notes: whole 60-bp probe, lowest competitor level
# Together with: Cbf1 competitor, 0.05 µM
# Reading: higher = stronger binding
# Shared flanks, not repeated: … GTCTTGATTCGCTTGACGCTGCTG
# Construct (chain): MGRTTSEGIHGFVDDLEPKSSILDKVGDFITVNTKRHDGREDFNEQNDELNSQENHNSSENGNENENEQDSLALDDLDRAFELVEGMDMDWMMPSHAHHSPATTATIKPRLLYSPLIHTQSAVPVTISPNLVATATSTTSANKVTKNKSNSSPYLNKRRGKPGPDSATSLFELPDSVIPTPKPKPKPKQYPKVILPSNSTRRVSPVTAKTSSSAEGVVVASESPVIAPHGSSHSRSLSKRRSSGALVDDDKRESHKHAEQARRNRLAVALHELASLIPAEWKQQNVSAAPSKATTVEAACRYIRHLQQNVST
Strand,fluorescence intensity [a.u.]
GACTCATTTCTTAGTGACGTTGGTGACAGGAATATG,4740
CTTTCCCGATCTTGCTCTGTGGGTGTAGCACATTTG,4160
AAAGCGGTAATTTTTCACGTGGACTCACATATCTAT,13500
AAATTACTAAGTTGTCACATTACTTACCCCGTATGA,4170
ATCTAAAAGTTGGATAACGTGCTTTGGAATTTCTGA,10600
GTCAACGCAGATTTGCAGATGCAAGCAAGAATACAT,4230
ACTTTCTTTCTGTTCCACGTGGGTACACCACTTCAA,19000
AATTCTGGAATACTCCACGTGACTCGTATCCGAAAA,12200
CGTCCTAGCGATTGAGAAGTGGGTGCCATGAGGAAG,5910
TTTCATTCAGACCAACACGTGGTGAATTCACATAGT,17100
AAATTACTAAGTTGCTAAGTGGGTGACGCCGTATGA,3750
CAAATGTTGCCTTTGCACGTGAAGGTGCATTTGTAT,13900
GGTGCCCAGAGTAAAGGCGTGATGGTGCAAAGACTC,5950
AAAGCGGTAATTTTTCACGTGCCATCACATATCTAT,14100
AAATTACTAAGTTTTCACGTGGACTACCCCGTATGA,12800
TGTTGAAGACCTCACTTCGTGACGGTTCGGCTTCGA,4150
CTAATTAAACCTTCACACATGCATAACTATAATGCA,9010
TTGTTGAGTAATCGGCACGTCACCGCACAACAGCCG,6680
TCTCAAGATCTGTTCCTCGTGGCCGAATGGTTACGG,10800
CGTCCTAGTGATTGTCACTTAACTTCCATGAGGAAG,4070
CGTCCTAGCGATTATCACGTGTTTTCCATGAGGAAG,19600
TCGCGTTTCTCCAGCCACGTGCTTTTAACCTAAATA,19700
AGTTCCTGCAGGGCCCACGTGGGGATACGGAGGCCC,16400
CTTGGCGTTGGTTATTGCGTGCTTTTCAAAAGACTC,5520

# Sample 2
# Target: RNA binding protein fox-1 homolog 2, RRM domain, GST-SBP tag (RBFOX2, Homo sapiens, UniProt O43251-10, residues 100-194)
# Method: RNA Bind-n-Seq
# Molecule type: RNA
# Medium: in vitro
# Concentration: 365 nM
# Notes: natural RNA segment, single round, ends assumed
# Reference: no-protein control
# Reading: higher = stronger binding
# Shared flanks, not repeated: GGGAGUUCUACAGUCCGACGAUC … UGGAAUUCUCGGGUGCCAA
# Residues (chain): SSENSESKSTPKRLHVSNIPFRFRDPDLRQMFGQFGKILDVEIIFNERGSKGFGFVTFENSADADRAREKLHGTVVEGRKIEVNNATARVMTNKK
Strand,RBNS enrichment (R)
GUCGUGGGACUUCAGGCCACAUUGGCUUGAAGGCAUUCGUUUCCUUCUGGGGUGGGGACAGGCCCUCAUGGCAGGCUUGUUCCCGUGGCUCUGAGCGAGGCCUCUUCCUG,0.283
AUCAUGCAAAAACCAUUUUGUUUCCAGGGUAACAAGUAACUAAGUGCAUGCACAACUUGUUUUCCCUUGUAACAUUCAUGAUCUCAUUUACAACUCUGAUUUUAAAACAA,1.33
CCAUAUCAAGAUUUCUGCUAGCUAAUGCAUAGAGGGAAUACUGUCUAAAAAUAGACCCUUUCUUCCCAAAGGUUGGGAGGUGGGACCUGAGCAGUGGAGUGAAGCCACAC,0.652
UUUUAAGUUAAGGGAAAAAGUAUAUUUUUGUUAAAACUUUCAUGAAAAAAUAAAAUAUAUCCUUGUCGAAUUCUGUAUCUAUGAUAACAAAUUCUUGUACUUUAAGAAAA,0.7
GUAUUUUGACAAAAUACGAAGUGGAGAUUUACACUACAUUGUACAAGGAAUGAAAGUGUCACGGGUAAAAACUCUAAAAGGUUAAUUUCUGUCAAAUGCAGUAGAUGAUG,0.487
GUGCACUUGUGUGUGGGUGACUAAGUGGAUGCAUGUGUGUGCCUGUGUGAGUGAGGGUAUGUGCACCUAAGUGUGUACAUGUGUGUAUGUUGUGAAAGUGUCUGUGCACA,15.2
GCGUGCAUGUAUCUCUUCACCAUGUCUUCUCUCACCUUCACUAAGGAGUCACCAGAUCAUCUGGCUCAGAUGCUCAGGAUGUAUUCCUUUGGCUUACCCCGUGCUCCUGG,7.11
UUUUCUGGUGGUUGUCAAGAAACAAAAGACCAAAAGAGCCUUUUUGUCUUUCUUUUUUAUUUUUUAAGUAUUGGAAUAAGUCUAAUGAAAAAGAAAGUGCCUUAUUUUUC,1.29
CCCUGCUCUGGCCCUGCCCCAGAGCUGUGACCCUUGUCCUUUGACCCAGCCUCUCAUUUCCAUCUCUCCAGACACUGCUCCUUCACCCUCACUGCCACCGGUCCAGCUCC,0.837
AGAACUCCCUGUCUGAAAAGGAUGCCGAGCCUUGUGCUCAGCAGAGGGAAGUUUGGCUAAUGGGCUGAUCGAAUGAGCUAACAUGGGCUGGGGCAGGCAACUACCCGUCC,0.541
CCCUCGUGUACAACCAAAGAACAGGCAUUAUGAAAUUGUAUAGUAAUAUCUAGAAACACCACUUCCCUCCAACCUGCGACUUUUGUACAAAAUUCAGAGAAUCUGUAAAG,0.29
ACACGAAGGCUGCCCCUGUAAGGUUUCAAUGCAUACAAUAAAAGAGCUUUAUCCCUAACUUCUGUUACUUCGUUCCUCCUCCUAUUUUGAGCUAUGCGAAAUAUCAUAUG,0.623

# Sample 3
# Target: Ras GTPase-activating protein-binding protein 1, C-terminal RGG region (G3BP1, Homo sapiens, UniProt Q13283)
# UniProt Q13283, sequence (whole entry, looked up): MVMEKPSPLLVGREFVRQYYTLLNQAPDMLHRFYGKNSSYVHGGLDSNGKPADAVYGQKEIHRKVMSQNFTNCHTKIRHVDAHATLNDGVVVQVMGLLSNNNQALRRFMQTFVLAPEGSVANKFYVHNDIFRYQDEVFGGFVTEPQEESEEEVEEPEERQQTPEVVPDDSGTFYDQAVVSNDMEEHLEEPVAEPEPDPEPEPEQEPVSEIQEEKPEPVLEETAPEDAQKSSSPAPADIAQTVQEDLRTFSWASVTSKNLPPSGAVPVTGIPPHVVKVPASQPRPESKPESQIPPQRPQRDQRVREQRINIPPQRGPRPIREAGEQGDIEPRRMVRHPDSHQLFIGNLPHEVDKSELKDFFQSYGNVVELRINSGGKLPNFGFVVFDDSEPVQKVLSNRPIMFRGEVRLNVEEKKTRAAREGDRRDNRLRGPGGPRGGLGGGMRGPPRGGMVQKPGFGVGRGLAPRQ
# Method: RNA Bind-n-Seq
# Molecule type: RNA
# Medium: in vitro
# Concentration: 1 µM
# Notes: whole 134-nt RNA, ends assumed
# Together with: 150 mM KCl
# Reference: input library
# Reading: higher = stronger binding
# Shared flanks, not repeated: GGGAGUUCUACAGUCCGACGAUC … UGGAAUUCUCGGGUGUCAAGG
Strand,log2 enrichment
CAAGUCCUGUGCUACACAUCGUAUGUACCGAAUCGGUUUGGGUUUGGGUUUGGGGAAAGUAUUAUGUUACGCCGUUCGGAUCUGCACUUC,-0.797
AAGUCCUGUGCUACACAUCGUAUGUACCGAAUCGGGCCCCGGGGCCCCGGGCCCCGGAAAGUAUUAUGUUACGCCGUUCGGAUCUGCACU,-1.61
CACAGACAACACGCACCCACACAGACACAGAGGGAAGGGGUUGGGAUGGGGACAGGGUGCACAGCAGGGCGGGGUAGGACUCCAGCCCCU,-0.785
AAGUCCUGUGCUACACAUCGUAUGUACCGAAUCGGUUUUUGGAAAGGAAAAAAAGGAAAGUAUUAUGUUACGCCGUUCGGAUCUGCACUU,-1.93
AAGUCCUGUGCUACACAUCGUAUGUACCGAAUCGGGAAAGGGAAAGGGGAAAGGGGAAAGUAUUAUGUUACGCCGUUCGGAUCUGCACUU,1.38
GUGCUACACAUCGUAUGUACCGAAUCGGGGUUUUUUUGGGGUUUUUUUGGGGUUUUUUUGGGGAAAGUAUUAUGUUACGCCGUUCGGAUC,0.134
ACCAUGCAGGUGGGCAUCUUUGGGAAGUGGGGCAAGGGGGGGAUAGGGAGGGGGGUAACACUUUGAGAACAGGUGGUCCCAGGUCGUUUC,2.19
UAACUUUAGAGGAGGAUCUGAUGGAUAUGGCAGUGGACGUGGAUUUGGGGAUGGCUAUAAUGGGUAUGGAGGAGGACUUGGAGGUGGCAA,-0.225
UGGCCCUGGUGGCAUGCGGGGAGGAAGAGGUGGCGUCAUGGAUCGUGGUGGUCCCGGUGGAAUGUUCAGAGGUGGCCGUGGUGGAGACAG,2.49
UGUGCUACACAUCGUAUGUACCGAAUCGGGGAAAAAAAGGGGAAAAAAAGGGAAAAAAAGGGAAAGUAUUAUGUUACGCCGUUCGGAUCU,-0.838
AGUCCUGUGCUACACAUCGUAUGUACCGAAUCGGGGCCCCGGCCCCGGGGCCCCGGGAAAGUAUUAUGUUACGCCGUUCGGAUCUGCACU,-2.89
UUCCUCAAGUCCUGUGCUACACAUCGUAUGUACCGAAUCGGUGGUGGUGGAAAGUAUUAUGUUACGCCGUUCGGAUCUGCACUUCCAGCA,-0.69
CCUCAAGUCCUGUGCUACACAUCGUAUGUACCGAAUCGGUUUGGUGGUUUGGAAAGUAUUAUGUUACGCCGUUCGGAUCUGCACUUCCAG,-0.918
GUCCUGUGCUACACAUCGUAUGUACCGAAUCGGGUUUUUUUGGGUGGGAAAAAAAGGGAAAGUAUUAUGUUACGCCGUUCGGAUCUGCAC,-0.463

# Sample 4
# Target: CCND3, cyclin fold, Cln2 fusion (human)
# Method: yeast growth competition, sequencing
# Medium: yeast
# Notes: weak parent motif
# Reference: not given
# Reading: higher = stronger binding
# Starting sequence: WEE1 docking peptide (human); HKTFRKLRLFDTP; partner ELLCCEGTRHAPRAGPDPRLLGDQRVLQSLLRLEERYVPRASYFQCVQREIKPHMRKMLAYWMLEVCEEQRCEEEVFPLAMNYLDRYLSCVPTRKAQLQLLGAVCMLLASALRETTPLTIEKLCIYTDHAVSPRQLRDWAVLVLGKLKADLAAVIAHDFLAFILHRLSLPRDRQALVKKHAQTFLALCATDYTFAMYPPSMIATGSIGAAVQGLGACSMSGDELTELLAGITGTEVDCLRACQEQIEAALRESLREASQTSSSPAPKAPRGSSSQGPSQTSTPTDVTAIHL
Change,normalised enrichment score
T3V,0.231
F10S,0.0842
L7E,0.108
L9Q,0.238
F10P,0.134
F4I,0.0355
T3W,0.0819
R8E,0.158
T12Y,0.137
H1C,0.114
T3M,0.0349
L7T,0.206
L9S,0.16

# Repeated from above (sample 1):
Strand,fluorescence intensity [a.u.]
TGTTGAAGACCTCACTTCGTGACGGTTCGGCTTCGA,4150
CTAATTAAACCTTCACACATGCATAACTATAATGCA,9010
TTGTTGAGTAATCGGCACGTCACCGCACAACAGCCG,6680
